Published values of several laboratories.
Lines come from different studies, so protocols differ. Several values in a cell are separate wells, animals, samples, runs or records. Numbers after ± are the reported error.

COc1ccc2c(c1OC)C(=O)c1c(cc(C)c(O)c1OC)C2=O
cell viability (HK-2 co-cultured with HepaRG; MTT; 266.67 µM, 24 h; reference: untreated control): 65.7 ± 7.25%

CC[C@H](C)[C@H](NC(=O)[C@H](CCCNC(=N)N)NC(=O)[C@H](CCC(N)=O)NC(=O)[C@@H](NC(=O)[C@@H](NC(=O)[C@H](CCCNC(=N)N)NC(=O)[C@H](CCCCN)NC(=O)[C@H](Cc1ccccc1)NC(=O)CN)[C@@H](C)CC)C(C)C)C(=O)N[C@@H](CCCCN)C(=O)N[C@@H](CC(=O)O)C(=O)N[C@@H](Cc1ccccc1)C(=O)N[C@@H](CC(C)C)C(=O)N[C@@H](CCCNC(=N)N)C(=O)N[C@@H](CC(N)=O)C(=O)N[C@@H](CC(C)C)C(=O)N[C@H](C(N)=O)C(C)C
LC50 (HEK293; cell viability, MTS; serum-free): 35 µM

O=C1c2ccccc2C(=O)c2ccccc21
viability (HK-2 co-cultured with HepaRG; MTT; 266.67 µM, 24 h; reference: untreated control): 129 ± 26.4%

CC[C@H](C)[C@H](N)C(=O)N[C@@H](CCCNC(=N)N)C(=O)N[C@H](C(=O)N[C@@H](Cc1c[nH]c2ccccc12)C(=O)N[C@@H](Cc1c[nH]c2ccccc12)C(=O)N[C@@H](CCCCN)C(=O)N[C@H](C(=O)N[C@H](C(=O)N[C@@H](CCCNC(=N)N)C(=O)N[C@@H](CCCCN)C(=O)N[C@@H](Cc1c[nH]c2ccccc12)C(=O)N[C@@H](CCCCN)C(=O)N[C@@H](C)C(=O)N[C@H](C(=O)N[C@@H](Cc1c[nH]c2ccccc12)C(=O)N[C@@H](Cc1c[nH]cn1)C(N)=O)[C@@H](C)CC)C(C)C)[C@@H](C)CC)C(C)C
hemolysis (rat erythrocytes; 200 µM, 60 min, 37 °C): 94.8 ± 2.2%

O=C(O)C(F)(F)C(F)(F)C(F)(F)C(F)(F)F
LDH activity in medium (hTERT-RPTEC-OAT1; LDH release; culture medium; concentration not given, 24 h, 96-well plate): 6.27 mU/mL

N=C(N)NCCC[C@H](NC(=O)[C@H](CCCNC(=N)N)NC(=O)[C@H](CCCNC(=N)N)NC(=O)[C@H](CCC(N)=O)NC(=O)[C@H](CCCNC(=N)N)NC(=O)[C@H](CCCNC(=N)N)NC(=O)[C@H](CCCCN)NC(=O)[C@H](CCCCN)NC(=O)[C@H](CCCNC(=N)N)NC(=O)CNC(=O)[C@H](Cc1ccc(O)cc1)NC(=O)CNC(=O)CNC(=O)CNC(=O)c1ccc2c(c1)C(=O)OC21c2ccc(O)cc2Oc2cc(O)ccc21)C(N)=O
transport ratio (hCMEC/D3 monolayers; BBB permeability, Transwell, item: CF-labelled compound; EGM-2 medium; concentration not given, 1 h, apical to basal; reference: fluorescence added apically): 2%

CC1=C(O)C(=O)C=C2C1=CC=C1[C@@]2(C)CC[C@@]2(C)[C@@H]3C[C@](C)(C(=O)O)CC[C@]3(C)CC[C@]12C
necrotic cells (COS-7; 3 µM, 24 h, 0.1% DMSO, unit not given; reference: vehicle control): 0.34 ± 0.24

CCCCCCCCCC(=O)N[C@@H](Cc1c[nH]c2ccccc12)C(=O)N[C@H](CC(N)=O)C(=O)N[C@@H](CC(=O)O)C(=O)N[C@@H]1C(=O)NCC(=O)N[C@@H](CCCNC(=O)CCC(=O)N2Cc3ccccc3-c3c(nnn3CCC[C@H](NC(=O)CCCCC[N+]3=C(C=CC4=CC(=CC=C5N(C)c6ccccc6C5(C)C)CCC4)C(C)(C)c4ccccc43)C(=O)NCCCCNC(=O)CCC(=O)N3Cc4ccccc4-c4c(nnn4CCOCCOCCOCCNC(=O)CN4CCN(CC(=O)NCCNC(=O)c5cccc(O)c5O)CCN(CC(=O)NCCNC(=O)c5cccc(O)c5O)CCN(CC(=O)NCCNC(=O)c5cccc(O)c5O)CC4)-c4ccccc43)-c3ccccc32)C(=O)N[C@@H](CC(=O)O)C(=O)N[C@H](C)C(=O)N[C@@H](CC(=O)O)C(=O)NCC(=O)N[C@H](CO)C(=O)N[C@@H]([C@H](C)CC(=O)O)C(=O)N[C@@H](CC(=O)c2ccccc2N)C(=O)O[C@@H]1C
EC50 (MCF7; cytotoxicity; 5 days, 5% FBS): > 64 µM

CC(C)(c1ccc(O)cc1)c1ccc(O)cc1
necrotic cells (HepG2 spheroids; annexin V-FITC/PI flow cytometry; 0.1 µM, 24 h): 16.8 ± 6.24%

CCN(CC)CCCC[C@H](NC(=O)[C@H](CC(C)C)NC(=O)[C@H](C)NC(=O)[C@H](Cc1ccccc1)NC(=O)c1ccc(C(C)(C)C)cc1)C(=O)N[C@@H](CO)C(=O)OC
intracellular concentration (PC-3; LC-MS/MS; 30 µM, 24 h): 1.36 µM

CC(C)C[C@H](NC(=O)[C@H](CCCNC(=N)N)NC(=O)CNC(=O)CNC(=O)CNC(=O)c1ccc2c(c1)C(=O)OC21c2ccc(O)cc2Oc2cc(O)ccc21)C(=O)N[C@@H](CO)C(=O)N[C@@H](CO)C(=O)N[C@H](C(=O)N[C@@H](CC(=O)O)C(=O)N[C@@H](CO)C(=O)N[C@@H](CC(=O)O)C(=O)N[C@@H](CC(C)C)C(=O)N[C@@H](CO)C(=O)NCC(=O)N[C@@H](CS)C(N)=O)C(C)C
transport ratio (hCMEC/D3 monolayers; BBB permeability, Transwell, item: CF-labelled compound; EGM-2 medium; concentration not given, 2 h, apical to basal; reference: fluorescence added apically): 6.6%

Oc1ccc(C2(c3ccc(O)cc3)c3ccccc3-c3ccccc32)cc1
early apoptotic cells (HepG2 spheroids, dissociated; annexin V-FITC/PI flow cytometry; 10 µM, 24 h): 14.2 ± 3.97%

Cc1cc2c(c(O)c1O)C(=O)c1c(O)cc(O)cc1C2=O
cell viability (HK-2 co-cultured with HepaRG; MTT; 133.33 µM, 24 h; reference: untreated control): 130 ± 19.3%

N#C[C@@]1(n2ccc(N)nc2=O)O[C@H](CO)[C@@H](O)[C@H]1O
micronucleated cells (CHO; 16 µM, with S9): 0.34%

N#C[C@H](C[C@@H]1CCCNC1=O)NC(=O)[C@H](CC1CC1)NC(=O)c1cc2cccc(Cl)c2[nH]1
EC50 (cryopreserved human hepatocytes; mRNA induction, inducer, item: CYP2B6; 72 h): 4.84 µM

CN(CCC=C1c2ccccc2CCc2ccccc21)N=O
LOAEL (TK6 expressing CYP2B6; micronucleus induction; 24 h, without S9): < 1 µM

CC[C@H](C)[C@H](NC(=O)[C@H](CO)NC(=O)CNC(=O)[C@H](CCCCN)NC(=O)[C@@H](NC(=O)[C@H](CC(N)=O)NC(=O)[C@H](Cc1ccccc1)NC(=O)[C@H](CC(N)=O)NC(=O)[C@@H](NC(=O)[C@H](CCCNC(=N)N)NC(=O)[C@@H]1CCCN1C(=O)[C@H](CCCNC(=N)N)NC(=O)[C@@H](NC(=O)[C@H](CCCNC(=N)N)NC(=O)[C@H](CCCNC(=N)N)NC(=O)[C@@H](NC(=O)[C@H](CCCNC(=N)N)NC(=O)[C@H](CO)NC(=O)[C@H](CC(C)C)NC(=O)[C@H](Cc1ccccc1)NC(=O)[C@H](CCCNC(=N)N)NC(=O)CNC(=O)[C@H](Cc1ccccc1)NC(=O)[C@H](CCCNC(=N)N)NC(=O)CNC(=O)[C@H](CCCNC(=N)N)NC(=O)[C@H](CCC(N)=O)NC(=O)[C@@H](NC(=O)[C@@H](N)CC(C)C)C(C)C)[C@@H](C)CC)[C@@H](C)CC)[C@@H](C)CC)[C@@H](C)CC)C(=O)O
HC50 (rat erythrocytes; haemolysis; 1 h, 37 °C, 2% erythrocytes in PBS): 3.11 log10 µg/mL

O=C(O)C(F)(F)C(F)(F)C(F)(F)C(F)(F)C(F)(F)C(F)(F)C(F)(F)C(F)(F)C(F)(F)F
LDH release (hTERT-RPTEC-OAT1; concentration not given, Transwell, apical-to-basolateral addition): 15.1 mU/mL and 17.7 mU/mL and 15.5 mU/mL and 15.9 mU/mL

CC[C@H](C)[C@H](NC(=O)[C@H](CCCCN)NC(=O)[C@H](CC(N)=O)NC(=O)[C@H](CCCNC(=N)N)NC(=O)[C@H](C)NC(=O)[C@H](CC(C)C)NC(=O)[C@H](CC(C)C)NC(=O)[C@H](CCSC)NC(=O)[C@H](Cc1c[nH]cn1)NC(=O)[C@H](CC(C)C)NC(=O)[C@@H](N)CC(C)C)C(=O)N[C@@H](CCCNC(=N)N)C(=O)N[C@H](C(=O)N[C@@H](CC(C)C)C(=O)N[C@@H](CCCCN)C(=O)N[C@@H](CC(N)=O)C(=O)N[C@@H](CC(N)=O)C(=O)N[C@@H](CCSC)C(=O)N[C@@H](Cc1ccccc1)C(=O)N[C@@H](CO)C(=O)N[C@@H](CCCCN)C(=O)N[C@@H](Cc1ccccc1)C(=O)N[C@@H](CCCCN)C(=O)N[C@@H](CCCCN)C(=O)N[C@@H](CC(C)C)C(=O)N[C@@H](CCCCN)C(=O)N[C@@H](CO)C(=O)N[C@@H](CC(C)C)C(=O)O)[C@@H](C)O
CC50 (HaCaT; cell viability, MTT; 24 h): 1200 µM

O=C(Nc1cccc(OS(=O)(=O)c2ccc(Cl)cc2)c1)c1ccc2ncccc2c1
viability (HEK-293T; MTT; 100 µM, 24 h; reference: untreated): > 75%

CC[C@H](C)[C@H](NC(=O)[C@H](CCCCN)NC(=O)[C@H](CC(C)C)NC(=O)[C@H](CCSC)NC(=O)[C@H](CO)NC(=O)[C@H](C)NC(=O)CNC(=O)[C@H](CCCCN)NC(=O)[C@H](CCCCN)NC(=O)[C@H](CC(N)=O)NC(=O)CNC(=O)[C@H](CCCCN)NC(=O)[C@H](CC(C)C)NC(=O)[C@H](CCCNC(=N)N)NC(=O)[C@@H](NC(=O)[C@H](CC(C)C)NC(=O)[C@H](Cc1ccc(O)cc1)NC(=O)[C@H](CCCCN)NC(=O)[C@H](C)NC(=O)[C@H](CCCCN)NC(=O)[C@@H]1CCCN1C(=O)[C@H](CCCCN)NC(=O)CNC(=O)[C@H](CCCNC(=N)N)NC(=O)[C@H](CC(C)C)NC(=O)[C@H](CCC(N)=O)NC(=O)[C@@H](N)Cc1ccccc1)C(C)C)C(=O)N[C@@H](CC(C)C)C(=O)N[C@@H](C)C(=O)N[C@H](C(=O)N[C@H](C(=O)N[C@@H](CCCNC(=N)N)C(=O)N1CCC[C@H]1C(=O)N[C@H](C(=O)N[C@@H](CCCCN)C(=O)N[C@@H](CCC(N)=O)C(=O)N[C@@H](CO)C(=O)N[C@@H](Cc1ccccc1)C(=O)N1CCC[C@H]1C(=O)N[C@@H](CO)C(=O)N[C@@H](CC(C)C)C(=O)N1CCC[C@H]1C(=O)O)[C@@H](C)O)[C@@H](C)O)[C@@H](C)O
CC50 (HaCaT; cell viability, MTT): 76 µM

CC[C@H](C)[C@H](NC(=O)CN)C(=O)NCC(=O)N[C@@H](C)C(=O)N[C@H](C(=O)N[C@@H](CC(C)C)C(=O)N[C@@H](CCCCN)C(=O)N[C@H](C(=O)N[C@@H](CC(C)C)C(=O)N[C@H](C(=O)N[C@H](C(=O)NCC(=O)N[C@@H](CC(C)C)C(=O)N1CCC[C@H]1C(=O)N[C@@H](C)C(=O)N[C@@H](CC(C)C)C(=O)N[C@H](C(=O)N[C@@H](CO)C(=O)N[C@@H](Cc1c[nH]c2ccccc12)C(=O)N[C@H](C(=O)N[C@@H](CCCCN)C(=O)N[C@@H](CCCNC(=N)N)C(=O)N[C@@H](CCCCN)C(=O)N[C@@H](CCCNC(=N)N)C(=O)N[C@@H](CCC(N)=O)C(=O)N[C@@H](CCC(N)=O)C(N)=O)[C@@H](C)CC)[C@@H](C)CC)[C@@H](C)O)[C@@H](C)O)C(C)C)C(C)C
lowest toxic concentration (IPEC-J2, HEK293 and HCE-T; MTT): 8 µM

For quick reference, copied from above:
CC[C@H](C)[C@H](NC(=O)[C@H](CCCNC(=N)N)NC(=O)[C@H](CCC(N)=O)NC(=O)[C@@H](NC(=O)[C@@H](NC(=O)[C@H](CCCNC(=N)N)NC(=O)[C@H](CCCCN)NC(=O)[C@H](Cc1ccccc1)NC(=O)CN)[C@@H](C)CC)C(C)C)C(=O)N[C@@H](CCCCN)C(=O)N[C@@H](CC(=O)O)C(=O)N[C@@H](Cc1ccccc1)C(=O)N[C@@H](CC(C)C)C(=O)N[C@@H](CCCNC(=N)N)C(=O)N[C@@H](CC(N)=O)C(=O)N[C@@H](CC(C)C)C(=O)N[C@H](C(N)=O)C(C)C
LC50 (HEK293; cell viability, MTS; serum-free): 35 µM

O=C(O)C(F)(F)C(F)(F)C(F)(F)C(F)(F)C(F)(F)C(F)(F)C(F)(F)C(F)(F)C(F)(F)F
LDH release (hTERT-RPTEC-OAT1; concentration not given, Transwell, apical-to-basolateral addition): 15.1 mU/mL and 17.7 mU/mL and 15.5 mU/mL and 15.9 mU/mL
